Published values of several laboratories.
Each line is one published result; not all experiments were run side by side.

| SMILES | species | medium | route | dose | notes | AUC(0-t) |
| --- | --- | --- | --- | --- | --- | --- |
| Nc1ncc(-c2cnn(CCO)c2)c2scc(-c3ccc(NC(=O)Nc4cccc(F)c4)cc3)c12 | human | plasma | oral | 240 mg | patients | 3980 ng·h/mL |
| Nc1nnc(CN[C@@H]2C[C@H]2c2ccc(OCc3ccccc3)cc2)o1 | human | plasma | oral | 1 mg/day | multiple doses, steady state | 199 ng·h/mL |
| CN(C)C/C=C/C(=O)Nc1cc2c(Nc3ccc(F)c(Cl)c3)ncnc2cc1O[C@H]1CCOC1 | human | plasma | oral | 10 mg | multiple doses, once daily, steady state, patients | 55.9 ng·h/mL |
| O=C(NCCN1CCCC1)c1cc(-c2ccc(CN3CCOCC3)cc2)nc2ccc(F)cc12 | human | blood | oral | 200 mg | single dose, whole blood | 1940 ng·h/mL |
| CCCCCN1C[C@H](O)[C@@H](O)[C@H](O)[C@@H]1CO | human | plasma | oral | 300 mg | single dose, fed, healthy volunteers | 11700 ng·h/mL |
| CCOc1ccc(Cc2cc([C@@H]3S[C@H](CO)[C@@H](O)[C@H](O)[C@H]3O)c(OC)cc2C)cc1 | male human | plasma | oral | 15 mg | single dose, fasted, healthy volunteers | 5120 ng·h/mL |
| O=C(c1nc2n(n1)[C@H](c1ccccc1)C[C@@H]2F)C1CC1 | human | plasma | oral | 225 mg | single dose, fasted, healthy volunteers | 31600 ng·h/mL |
| CCC1=C(C)CN(C(=O)NCCc2ccc(S(=O)(=O)NC(=O)N[C@H]3CC[C@H](C)CC3)cc2)C1=O | male human | plasma | oral | 4 mg | single dose | 1100 ng·h/mL |
| Cc1c(Cl)c(C)[n+]([O-])c(Cl)c1-c1noc(-c2cc(O)c(O)c([N+](=O)[O-])c2)n1 | male human | plasma | oral | 50 mg | single dose, fasted, healthy volunteers, tablet | 5170 ng·h/mL |
| CC[C@@H]1C(=O)N(C)c2cnc(Nc3ccc(C(=O)N[C@H]4CC[C@H](N5CCN(CC6CC6)CC5)CC4)cc3OC)nc2N1C(C)C | human | plasma | intravenous | 150 mg | patients, infusion | 1890 ng·h/mL |
| CNc1nc(Nc2ccc(-n3cnc(C)n3)c(OC)c2)nc2c1CC[C@H]2c1ccc(F)cc1 | human | plasma | oral | 30 mg | single dose, healthy volunteers | 895 ng·h/mL |
| CCCOc1ccc([C@H]2CNC(=O)N2c2ccc3[nH]cnc3c2)cc1 | human | plasma | oral | 300 mg | multiple doses, twice daily, fasted | 5660 ng·h/mL |
| CC(C)(/C=C(\C#N)C(=O)N1CCC[C@@H](n2nc(-c3ccc(Oc4ccccc4)cc3F)c3c(N)ncnc32)C1)N1CCN(C2COC2)CC1 | human | plasma | oral | 100 mg | single dose, healthy volunteers | 65 ng·h/mL |
| CCCCC[C@H](O)CC[C@@H]1[C@H]2Cc3cccc(OCC(=O)O)c3C[C@H]2C[C@H]1O | human | plasma | inhaled | 54 µg | patients | 0.84 ng·h/mL |
| CC(C)(Sc1ccncc1-c1ccc(C#N)c2ccccc12)C(=O)O | male human | plasma | oral | 5 mg | single dose, fasted | 32.6 ng·h/mL |
| CS(=O)(=O)n1cc2c(n1)CN([C@H]1CO[C@H](c3cc(F)ccc3F)[C@@H](N)C1)C2 | male human | plasma | oral | 50 mg | single dose, fasted, healthy volunteers | 39.4 µM·h |
| CS(=O)(=O)n1cc2c(n1)CN([C@H]1CO[C@H](c3cc(F)ccc3F)[C@@H](N)C1)C2 | male human | plasma | oral | 10 mg | single dose, fasted | 9.07 µM·h |
| CNC(=O)c1ccc(-c2cnc3ncc(Cc4ccc5ncccc5c4)n3n2)cc1F | human | plasma | oral | 100 mg twice daily | multiple doses, steady state, patients | 3820 ng·h/mL |
| COc1cc(C(=O)NC2CCN(C)CC2)c(F)cc1Nc1ncc(C(F)(F)F)c(Oc2cccc3c2C(=O)N(C)C3)n1 | human | plasma | oral | 200 mg | single dose, fed, healthy volunteers, tablet | 31 µM·h |

A few entries again:
| SMILES | species | medium | route | dose | notes | AUC(0-t) |
| --- | --- | --- | --- | --- | --- | --- |
| CC(C)(/C=C(\C#N)C(=O)N1CCC[C@@H](n2nc(-c3ccc(Oc4ccccc4)cc3F)c3c(N)ncnc32)C1)N1CCN(C2COC2)CC1 | human | plasma | oral | 100 mg | single dose, healthy volunteers | 65 ng·h/mL |
| CCCOc1ccc([C@H]2CNC(=O)N2c2ccc3[nH]cnc3c2)cc1 | human | plasma | oral | 300 mg | multiple doses, twice daily, fasted | 5660 ng·h/mL |
| CCCCCN1C[C@H](O)[C@@H](O)[C@H](O)[C@@H]1CO | human | plasma | oral | 300 mg | single dose, fed, healthy volunteers | 11700 ng·h/mL |
